Measured values from different studies.
Every numbered part comes from another study and shows a few of its results, in no order.

Series 1
Target: 5-hydroxytryptamine receptor 2C (HTR2C, Homo sapiens, UniProt P28335)
Sequence of UniProt P28335 (whole entry, looked up): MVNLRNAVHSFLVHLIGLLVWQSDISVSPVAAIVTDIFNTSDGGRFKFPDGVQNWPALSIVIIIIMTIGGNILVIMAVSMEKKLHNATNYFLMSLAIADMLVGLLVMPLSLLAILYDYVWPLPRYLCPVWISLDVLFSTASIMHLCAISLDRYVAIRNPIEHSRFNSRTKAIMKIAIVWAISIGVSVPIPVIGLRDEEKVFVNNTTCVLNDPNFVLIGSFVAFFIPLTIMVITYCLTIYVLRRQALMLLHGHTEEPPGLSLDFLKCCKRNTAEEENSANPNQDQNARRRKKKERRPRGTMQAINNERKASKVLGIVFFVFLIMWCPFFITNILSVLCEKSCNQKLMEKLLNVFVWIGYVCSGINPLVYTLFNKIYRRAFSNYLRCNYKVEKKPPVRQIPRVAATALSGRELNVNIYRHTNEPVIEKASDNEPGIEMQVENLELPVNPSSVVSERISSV
Read-out: binding
Method: radioligand binding
Concentration: 10 µM
SMILES	inhibition
CC1=C(C#N)[C@@H](c2ccc3[nH]nc(C)c3c2)C(C#N)=C(c2ccc(Cl)cc2)N1	71.8%
CCCOc1ccc([C@H]2[C@H](C(=O)O)[C@@H](c3ccc4c(c3)OCO4)CN2CC(=O)Nc2c(CC)cccc2CC)cc1	-5.44%
Cc1nc(C2CCN(C(=O)c3ccc(OC(F)(F)F)cc3N)CC2)c2ncc(N3CCN(C)CC3)cc2n1	-14.6%

Series 2
Cell line: Huh-7
Concentration: 10 µM
Time: 24 h
Compound	viability
C#C[C@]1(O)CC[C@H]2[C@@H]3CCC4=CC(=O)CC[C@]4(C)[C@H]3CC[C@@]21C	97.2%
CC[C@@H](CO)NC(=O)[C@@H]1C=C2c3cccc4[nH]cc(c34)C[C@H]2N(C)C1	88.7%
CCOC(=O)c1cncn1[C@H](C)c1ccccc1	98.5%
CC(Cc1ccc(O)cc1)NCC(O)c1cc(O)cc(O)c1 (stereo not drawn)	99.6%

Single results of other studies
SMILES	test system	conditions	quantity	result
CC(=O)Oc1ccc(/C=C/c2cc(OC(C)=O)cc(OC(C)=O)c2)cc1	mouse, microsomes or S9	2 µM, 0.5 h	remaining compound	5.03%
[N-]=[N+]=CC(=O)CC[C@H](N)C(=O)O	C57BL/6 CES1-/- mouse, blood	intravenous, 1 mg/kg equivalent	lymphocyte count	0.58
